Assay results from different studies.
Lines come from different studies, so protocols differ.

The inhibition of `Cc1ccc(N2CC(N3CCC(C)(O)CC3)C2)cc1C(=O)NC1(c2ccc3c4c(cccc24)CC3)CC1` is reported as 0% (SARS-CoV-2; viral replication; Vero C1008, XBB.1; 0.01715 µM).
For `Cc1oc2nc1C(=O)N[C@](C)(C(=O)OC(C)C)c1nc(c(C)o1)C(=O)N[C@](C)(C(=O)OC(C)C)c1nc(c(C)o1)C(=O)N[C@]2(C)C(=O)OC(C)C`, the inhibition was 12% (SARS-CoV-2; virucidal activity; Vero E6, NRC-03-nhCoV; 5 µM).
The inhibition of `CC(C)C1=C[C@@]23CC[C@@H]4[C@](C)(CCC[C@@]4(C)C(=O)NCC#CCN4CCCNCC4)[C@H]2C[C@@H]1[C@H]1C(=O)OC(=O)[C@H]13` is reported as 28.3% (SARS-CoV-2 pseudovirus; pseudovirus infection; BHK-21-hACE2; 20.0 µM).
For `Cc1ccc(N2CC(N3CCC(C)(O)CC3)C2)cc1C(=O)NC1(c2ccc3c4c(cccc24)C(=O)N3C)CC1`, the inhibition was 95% (SARS-CoV-2; viral replication; Vero C1008, wild type; 0.1543 µM).
`Cc1oc2nc1C(=O)N[C@](C)(C(=O)NCCc1ccccc1)c1nc(c(C)o1)C(=O)N[C@](C)(C(=O)NCCc1ccccc1)c1nc(c(C)o1)C(=O)N[C@]2(C)C(=O)NCCc1ccccc1` gave an inhibition of 11% (SARS-CoV-2; viral adsorption; Vero E6, NRC-03-nhCoV; 20 µM).
With `COC(=O)c1c(C)[nH]c2c3c(c(O)c(CN4CCOCC4)c12)[C@H]1C[C@@H]2[C@@]4(C)CCC[C@@](C)(C(=O)OC)[C@@H]4CC[C@@]32C=C1C(C)C` the inhibition was 31.7% (SARS-CoV-2 pseudovirus; pseudovirus infection; BHK-21-hACE2; 20.0 µM).
With `O=C(C=Cc1ccc(O)c(O)c1)OC1CC(O)(C(=O)O)CC(OC(=O)C=Cc2ccc(O)c(O)c2)C1O` (stereo not shown) the inhibition was 0% (Severe acute respiratory syndrome coronavirus 2; cytopathic effect, inhibitor; Vero C1008; 25 µM).
The inhibition of `Cc1oc2nc1C(=O)N[C@](C)(C(=O)O)c1nc(c(C)o1)C(=O)N[C@](C)(C(=O)O)c1nc(c(C)o1)C(=O)N[C@]2(C)C(=O)O` is reported as 36% (SARS-CoV-2; viral replication; Vero E6, NRC-03-nhCoV; 10 µM).
`Cc1ccc(N2CC3CC(C2)N3)cc1C(=O)NC1(c2ccc3c4c(cccc24)C(=O)N3C)CC1` gave an inhibition of 95% (SARS-CoV-2; viral replication; Vero C1008, XBB.1; 0.1543 µM).
`COC(=O)c1cc2c(=O)n3ccccc3nc2n1Cc1ccccc1` has an inhibition of 22.2% (Severe acute respiratory syndrome coronavirus 2; viral replication, inhibitor, qPCR; Vero C1008; 1 µM).
For `CCN(CC)CC#CCOC(=O)[C@]1(C)CCC[C@]2(C)[C@H]3C[C@H]4C(C(C)C)=C[C@]3(CC[C@H]21)[C@@H]1C(=O)CCC(=O)[C@@H]14`, the inhibition was 42.2% (SARS-CoV-2 pseudovirus; pseudovirus infection; BHK-21-hACE2; 20.0 µM).
With `O=[N+]([O-])c1ccc(-n2nc(-c3ccc(F)cc3)cc2-c2ccc(F)cc2)c([N+](=O)[O-])c1` the inhibition was 70.5% (Japanese encephalitis virus; viral replication, item: viral RNA; SA14-14-2, mice, spleen; ip, 100 mg/kg/day, 120 h).
`CC(C)CC(C(=O)N1CC2(CC1C#N)C(=O)Nc1ccccc12)N(C)C(=O)c1cc2c(F)cc(F)c(F)c2[nH]1` (stereo not shown) has an inhibition of 0% (pangolin coronavirus; viral replication; 0.0004572 µM).
`CCN(CC)CC#CCOC(=O)[C@]1(C)CCC[C@@]2(C)[C@H]1CC=C1C=C(C(C)C)CC[C@@H]12` has an inhibition of 43.3% (SARS-CoV-2 pseudovirus; pseudovirus infection; BHK-21-hACE2; 20.0 µM).
The inhibition of `COc1c(/C=C/C(=O)c2ccc(O)cc2)ccc(O)c1O` is reported as > 90% (SFTSV; IL-1β secretion; THP-1 macrophages; 10 µM, 48 h).
For `CC(C)C1=CC2=C(C=O)C[C@@H]3[C@](C)(CCC[C@@]3(C)C(=O)OCC#CCN3CCOCC3)[C@H]2CC1`, the inhibition was 48.1% (SARS-CoV-2 pseudovirus; pseudovirus infection; BHK-21-hACE2; 20.0 µM).
`O=S(=O)(O)c1c2ccccc2c(-c2c3nc(c(-c4c5ccccc5c(S(=O)(=O)O)c5ccccc45)c4ccc([nH]4)c(-c4c5ccccc5c(S(=O)(=O)O)c5ccccc45)c4nc(c(-c5c6ccccc6c(S(=O)(=O)O)c6ccccc56)c5ccc2[nH]5)C=C4)C=C3)c2ccccc12` has an inhibition of 81% (Orthopoxvirus vaccinia; viral replication; 25 µg/mL, 24 h).
`CC(C)C1=CC2=CC[C@@H]3[C@](C)(CCC[C@@]3(C)C(=O)OCC#CCN3CCOCC3)[C@H]2CC1` has an inhibition of 28.4% (SARS-CoV-2 pseudovirus; pseudovirus infection; BHK-21-hACE2; 20.0 µM).
The inhibition of `Cc1ccc(N2CCN(C)CC2)cc1C(=O)NC1(c2ccc3c4c(cccc24)CC3)CC1` is reported as 0% (SARS-CoV-2; viral replication; Vero C1008, wild type; 0.05144 µM).

A few entries again:
`Cc1oc2nc1C(=O)N[C@](C)(C(=O)NCCc1ccccc1)c1nc(c(C)o1)C(=O)N[C@](C)(C(=O)NCCc1ccccc1)c1nc(c(C)o1)C(=O)N[C@]2(C)C(=O)NCCc1ccccc1` gave an inhibition of 11% (SARS-CoV-2; viral adsorption; Vero E6, NRC-03-nhCoV; 20 µM).
With `COC(=O)c1c(C)[nH]c2c3c(c(O)c(CN4CCOCC4)c12)[C@H]1C[C@@H]2[C@@]4(C)CCC[C@@](C)(C(=O)OC)[C@@H]4CC[C@@]32C=C1C(C)C` the inhibition was 31.7% (SARS-CoV-2 pseudovirus; pseudovirus infection; BHK-21-hACE2; 20.0 µM).
With `O=C(C=Cc1ccc(O)c(O)c1)OC1CC(O)(C(=O)O)CC(OC(=O)C=Cc2ccc(O)c(O)c2)C1O` (stereo not shown) the inhibition was 0% (Severe acute respiratory syndrome coronavirus 2; cytopathic effect, inhibitor; Vero C1008; 25 µM).
